Measurements from different studies.
“And” joins repeats or separate records; there may be more than shown.
Target: Death-associated protein kinase 1 (DAPK1, Homo sapiens, UniProt P53355)
UniProt P53355, sequence (whole entry, looked up): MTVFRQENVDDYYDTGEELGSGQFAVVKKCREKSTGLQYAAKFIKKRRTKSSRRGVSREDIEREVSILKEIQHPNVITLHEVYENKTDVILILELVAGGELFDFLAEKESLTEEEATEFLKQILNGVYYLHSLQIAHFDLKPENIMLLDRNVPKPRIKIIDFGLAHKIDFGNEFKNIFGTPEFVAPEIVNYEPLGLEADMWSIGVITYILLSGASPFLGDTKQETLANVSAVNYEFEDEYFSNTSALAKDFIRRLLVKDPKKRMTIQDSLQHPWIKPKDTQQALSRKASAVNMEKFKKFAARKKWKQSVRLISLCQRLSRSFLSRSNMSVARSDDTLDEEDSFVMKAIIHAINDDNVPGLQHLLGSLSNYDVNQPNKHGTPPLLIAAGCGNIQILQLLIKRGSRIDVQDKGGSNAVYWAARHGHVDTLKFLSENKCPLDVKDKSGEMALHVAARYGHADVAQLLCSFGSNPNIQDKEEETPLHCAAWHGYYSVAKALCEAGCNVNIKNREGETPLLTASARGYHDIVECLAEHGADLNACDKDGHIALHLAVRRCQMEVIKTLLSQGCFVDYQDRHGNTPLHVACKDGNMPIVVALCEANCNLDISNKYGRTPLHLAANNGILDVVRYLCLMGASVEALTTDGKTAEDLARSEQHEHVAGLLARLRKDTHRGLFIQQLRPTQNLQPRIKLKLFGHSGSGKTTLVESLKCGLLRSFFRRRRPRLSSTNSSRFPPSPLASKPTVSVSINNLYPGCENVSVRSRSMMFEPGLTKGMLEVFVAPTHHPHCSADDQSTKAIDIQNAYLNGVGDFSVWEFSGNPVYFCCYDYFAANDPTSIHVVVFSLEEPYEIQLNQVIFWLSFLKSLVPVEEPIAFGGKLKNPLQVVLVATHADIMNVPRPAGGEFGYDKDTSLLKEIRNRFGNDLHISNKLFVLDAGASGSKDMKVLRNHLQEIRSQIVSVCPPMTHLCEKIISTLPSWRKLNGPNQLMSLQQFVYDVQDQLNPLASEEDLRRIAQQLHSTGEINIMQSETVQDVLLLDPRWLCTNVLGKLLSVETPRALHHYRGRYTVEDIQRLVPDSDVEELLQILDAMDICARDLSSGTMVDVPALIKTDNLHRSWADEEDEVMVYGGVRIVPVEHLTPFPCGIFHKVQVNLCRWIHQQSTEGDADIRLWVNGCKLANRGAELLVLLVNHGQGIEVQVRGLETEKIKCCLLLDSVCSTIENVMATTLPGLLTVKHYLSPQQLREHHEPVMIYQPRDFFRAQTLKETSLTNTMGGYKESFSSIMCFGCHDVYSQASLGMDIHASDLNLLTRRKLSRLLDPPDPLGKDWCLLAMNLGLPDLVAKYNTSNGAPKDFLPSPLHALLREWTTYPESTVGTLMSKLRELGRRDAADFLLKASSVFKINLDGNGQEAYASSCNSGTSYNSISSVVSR

SMILES | assay | conditions | scale | measurement | value
CN1CC[C@@H](COc2cnc(C#N)cc2-c2ccn3nc(NC(=O)C4CC4)cc3c2)C1 | enzyme activity, inhibitor | 1 µM |  | inhibition | 5%
Nc1ncc(-c2cc(-c3cnn(CC(F)(F)F)c3)ncc2F)nc1C(=O)NC1CNCC(F)C1 (stereo not shown) | enzyme activity | 1 µM | reference: DMSO control | remaining activity | 130%
Nc1ncc2c(n1)-c1c([nH]c3ccc(C4=CCOCC4)cc13)CCC2 | binding, competition with immobilised ligand | 1 µM |  | remaining binding | 95%
C=CC(=O)N1CCCC(n2c(=O)c3ncccc3n(Cc3ccc(Oc4ccccc4)cc3)c2=O)C1 (stereo not shown) | cell-free assay, competition with immobilised ligand | 1 µM |  | remaining binding | 100%
COc1ccc(NC(=O)Nc2ccc3c(c2)C(=O)N(C(C)CO)CC(C)C(CN(C)Cc2ccc4c(c2)OCO4)O3)cc1 (stereo not shown) | kinase activity, KinaseProfiler | 0.03 µM, species human | reference: control | remaining activity | 107%
Cc1cnc2nc1Nc1cccc(c1)COC/C=C/COCc1cc(ccc1OCCN1CCOCC1)N2 | binding | 0.1 µM |  | remaining binding | 80%
C=CC(=O)Nc1cccc(-c2cnc3[nH]cc(C(=O)NC(C)(C)C)c3n2)c1 | kinase activity | 0.1 µM |  | inhibition | 4% and 3%
CCn1cc(C(=O)O)c(=O)c2c(N)c(F)c(NC3CCCCC3)cc21 | kinase activity | 0.1 µM, added: ATP at Km |  | inhibition | -31%
Cc1nc2c(F)cc(-c3nc(Nc4ccc(CNC(=O)CCCCCCC(=O)NO)cc4)ncc3F)cc2n1C(C)C | enzyme activity, inhibitor | 1 µM |  | inhibition | 50%
NC(=O)[C@@H](O)C[C@H]1CCc2sc3ncnc(O[C@H]4CC[C@H](N5CCOCC5)CC4)c3c21 | enzyme activity, inhibitor | 10 µM |  | inhibition | -3%
COc1cc(Nc2nccc(-c3cnn4nc(OC)ccc34)n2)cc(C(F)(F)F)c1 | binding, competition with immobilised ligand | 1 µM |  | remaining binding | 88%
COc1c(OCCCN2CCOCC2)ccc2c1N=C(NC(=O)c1cnc(N)nc1)N1CCN=C21 | kinase activity, inhibitor | 1 µM | reference: untreated control | remaining activity | 77%
CC(C)=CC1OC(C)(C)C2C=C3C(=O)C(Cl)=CC(O)C3C3C(O)C4OC4C(=O)C132 (stereo not shown) | cell-free assay, competition with immobilised ligand | 10 µM |  | remaining binding | 88%
Cc1cccc(O[C@H]2CCC[C@@H](C(C)CNCc3ccncc3)C2)c1 (relative stereo) | enzyme activity, inhibitor | 10 µM |  | inhibition | 3%
C=CC(=O)N1CCc2ccc(-n3c(=O)ccc4cnc5ccc(-c6cnn(C)c6)cc5c43)cc21 | KINOMEscan | 1 µM | reference: DMSO control | remaining binding | 66%
O=C=[N][Ru-4]123([n]4c5ccc(O)cc5c5c6c(c7cc(F)c[n+]1c7c54)C(=O)NC6=O)[S+]1CC[S+]2CC[S+]3CC1 (stereo not shown) | enzyme activity | 100 nM, human enzyme, added: 10 µM ATP | reference: untreated | remaining activity | 21%

Some of these lines once more:
SMILES | assay | conditions | scale | measurement | value
Cc1nc2c(F)cc(-c3nc(Nc4ccc(CNC(=O)CCCCCCC(=O)NO)cc4)ncc3F)cc2n1C(C)C | enzyme activity, inhibitor | 1 µM |  | inhibition | 50%
COc1cc(Nc2nccc(-c3cnn4nc(OC)ccc34)n2)cc(C(F)(F)F)c1 | binding, competition with immobilised ligand | 1 µM |  | remaining binding | 88%
